Assay results gathered from unrelated publications.
Every numbered part comes from another study and shows a few of its results, in no order. ± gives the spread as reported. Converted amounts (≈) assume the structure as drawn.
Chain of UniProt P07384 (whole entry, looked up): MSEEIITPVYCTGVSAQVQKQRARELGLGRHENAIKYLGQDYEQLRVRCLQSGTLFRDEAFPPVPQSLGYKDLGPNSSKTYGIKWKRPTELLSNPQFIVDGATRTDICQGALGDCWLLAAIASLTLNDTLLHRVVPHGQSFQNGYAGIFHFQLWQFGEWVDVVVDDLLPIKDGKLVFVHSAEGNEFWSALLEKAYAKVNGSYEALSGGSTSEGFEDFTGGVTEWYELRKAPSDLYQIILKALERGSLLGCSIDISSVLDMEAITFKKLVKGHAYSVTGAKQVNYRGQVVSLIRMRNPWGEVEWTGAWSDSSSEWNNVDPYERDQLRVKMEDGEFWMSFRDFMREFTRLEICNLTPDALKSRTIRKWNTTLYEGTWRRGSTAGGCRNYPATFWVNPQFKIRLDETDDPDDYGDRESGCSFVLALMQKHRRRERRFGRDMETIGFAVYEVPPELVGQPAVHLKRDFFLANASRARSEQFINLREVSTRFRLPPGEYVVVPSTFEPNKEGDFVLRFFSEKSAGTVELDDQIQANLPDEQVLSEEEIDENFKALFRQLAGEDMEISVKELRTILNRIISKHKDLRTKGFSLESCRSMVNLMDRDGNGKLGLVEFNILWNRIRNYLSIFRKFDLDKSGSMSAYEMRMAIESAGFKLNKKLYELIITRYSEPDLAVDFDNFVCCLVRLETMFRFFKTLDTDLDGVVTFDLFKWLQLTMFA
Chain of UniProt P53350 (whole entry, looked up): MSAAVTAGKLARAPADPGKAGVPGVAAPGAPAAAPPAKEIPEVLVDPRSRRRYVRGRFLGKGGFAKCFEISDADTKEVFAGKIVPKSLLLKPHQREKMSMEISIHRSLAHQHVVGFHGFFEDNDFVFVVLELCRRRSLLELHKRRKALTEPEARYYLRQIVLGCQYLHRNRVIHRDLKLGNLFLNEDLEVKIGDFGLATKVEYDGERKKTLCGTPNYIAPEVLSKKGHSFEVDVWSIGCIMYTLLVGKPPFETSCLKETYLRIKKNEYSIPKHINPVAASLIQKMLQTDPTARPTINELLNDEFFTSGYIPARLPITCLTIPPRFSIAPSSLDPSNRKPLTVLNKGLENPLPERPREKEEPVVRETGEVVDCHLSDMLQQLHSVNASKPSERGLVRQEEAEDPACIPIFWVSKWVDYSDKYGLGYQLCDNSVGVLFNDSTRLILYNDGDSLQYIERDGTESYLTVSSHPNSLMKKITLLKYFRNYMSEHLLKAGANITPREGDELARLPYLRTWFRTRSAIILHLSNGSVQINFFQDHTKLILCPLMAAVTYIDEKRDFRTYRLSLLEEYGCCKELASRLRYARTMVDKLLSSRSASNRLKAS
Chain of UniProt A0A059WYP6 (whole entry, looked up): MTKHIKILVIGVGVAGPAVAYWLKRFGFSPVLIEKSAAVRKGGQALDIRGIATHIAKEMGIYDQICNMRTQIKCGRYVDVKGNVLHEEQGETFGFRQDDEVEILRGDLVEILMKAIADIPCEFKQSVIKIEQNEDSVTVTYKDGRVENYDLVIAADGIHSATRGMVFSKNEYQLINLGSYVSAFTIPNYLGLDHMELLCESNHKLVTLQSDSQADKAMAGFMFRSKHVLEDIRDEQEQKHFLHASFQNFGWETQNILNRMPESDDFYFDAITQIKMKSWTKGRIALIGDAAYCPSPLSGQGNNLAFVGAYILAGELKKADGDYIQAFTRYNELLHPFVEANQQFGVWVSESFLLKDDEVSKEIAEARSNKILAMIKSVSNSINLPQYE

Study 1 — cell line: Jurkat; time: 72 h
SMILES | CC50 [µM]
O=C(NCc1ccc(F)cc1)c1cn(Cc2ccc(C(F)(F)F)cc2)c2ccc(Oc3ccccc3)cc2c1=O | > 100
O=C(NCc1ccc(Cl)cc1)c1cn(Cc2ccc(Cl)cc2)c2ccc(Oc3ccccc3)cc2c1=O | 11.2 ± 0.21
O=C(NCc1ccc(C(F)(F)F)cc1)c1cn(Cc2ccc(Cl)cc2)c2ccc(Oc3ccccc3)cc2c1=O | 81.5 ± 6.72
O=C(NCc1ccc(F)cc1)c1cn(Cc2ccc(F)cc2)c2ccc(Oc3ccccc3)cc2c1=O | 27.3 ± 2.05
O=C(NCc1ccc(C(F)(F)F)cc1)c1cn(Cc2ccc(F)cc2)c2ccc(Oc3ccccc3)cc2c1=O | 36.4 ± 3.61
O=C(NCc1ccccc1)c1cn(Cc2ccc(C(F)(F)F)cc2)c2ccc(Oc3ccccc3)cc2c1=O | 6.99 ± 1.09
O=C(NCc1ccc(O)cc1)c1cn(Cc2ccc(F)cc2)c2ccc(Oc3ccccc3)cc2c1=O | 33.6 ± 4.11

Mixed results
SMILES | target or system | assay | system | setting | measurement | value
CC(C)C[C@H](NC(=O)[C@H]1O[C@@H]1C(=O)O)C(=O)NCCCCN=C(N)N | Calpain-1 catalytic subunit (CAPN1, Homo sapiens, UniProt P07384) | enzyme activity, inhibitor |  |  | IC50 | 0.01 µM
O=C(/C=C/c1ccccc1)Nc1ncccn1 | Candida albicans |  | wild type | 48 h, 30 °C | MIC80 | 25 µM (≈ 5.63 µg/mL)
O=C(Nc1cc(-c2ccc(Cl)cc2)[nH]n1)C1CCCCC1 | Serine/threonine-protein kinase PLK1 (PLK1, Homo sapiens, UniProt P53350) | enzyme activity |  | 10 µM | remaining activity | 90%
Cc1cn([C@H]2C[C@H](N=[N+]=[N-])[C@@H](CO)O2)c(=O)[nH]c1=O | MT4 | cell viability |  | 3 days | CC50 | > 0.5 µM
CCc1cnc(NC(=O)/C=C/c2cccs2)nc1 | Candida albicans |  |  | concentration not given | antifungal activity | inactive
Cc1c2c(c(O)c3c(O)c(NC(=O)c4ccccc4[N+](=O)[O-])ccc13)C(=O)[C@]1(O)C(=O)C(C(N)=O)=C(O)[C@@H](N(C)C)[C@@H]1C2 | Flavin-dependent monooxygenase (tet(50), Unknown prokaryotic organism, UniProt A0A059WYP6) |  |  |  | IC50 | > 1000 µM
C1=C2CCCN[C@H]2[C@@H]2C[C@H]1[C@H]1CCCCN1C2 | MT4 | cell viability |  | 3 days | CC50 | > 80 µM
